Results of several laboratories.
Each numbered part is a random draw from the data of one study; scales do not carry over between parts.
UniProt Q92985, sequence (whole entry, unmodified, looked up): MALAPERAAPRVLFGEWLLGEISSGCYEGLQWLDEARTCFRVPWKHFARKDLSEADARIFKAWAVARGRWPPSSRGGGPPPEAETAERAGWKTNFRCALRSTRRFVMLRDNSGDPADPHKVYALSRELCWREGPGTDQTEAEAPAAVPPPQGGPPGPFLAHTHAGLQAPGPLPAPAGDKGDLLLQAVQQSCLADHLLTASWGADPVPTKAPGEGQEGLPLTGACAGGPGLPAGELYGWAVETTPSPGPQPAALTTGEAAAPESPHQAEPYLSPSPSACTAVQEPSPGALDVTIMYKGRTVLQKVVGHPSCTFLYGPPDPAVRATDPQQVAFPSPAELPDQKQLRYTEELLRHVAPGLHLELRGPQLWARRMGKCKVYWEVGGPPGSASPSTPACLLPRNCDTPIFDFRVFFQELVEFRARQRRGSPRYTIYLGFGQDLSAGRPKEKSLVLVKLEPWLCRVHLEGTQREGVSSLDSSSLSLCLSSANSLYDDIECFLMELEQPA
UniProt Q9UJQ4, sequence (whole entry, looked up): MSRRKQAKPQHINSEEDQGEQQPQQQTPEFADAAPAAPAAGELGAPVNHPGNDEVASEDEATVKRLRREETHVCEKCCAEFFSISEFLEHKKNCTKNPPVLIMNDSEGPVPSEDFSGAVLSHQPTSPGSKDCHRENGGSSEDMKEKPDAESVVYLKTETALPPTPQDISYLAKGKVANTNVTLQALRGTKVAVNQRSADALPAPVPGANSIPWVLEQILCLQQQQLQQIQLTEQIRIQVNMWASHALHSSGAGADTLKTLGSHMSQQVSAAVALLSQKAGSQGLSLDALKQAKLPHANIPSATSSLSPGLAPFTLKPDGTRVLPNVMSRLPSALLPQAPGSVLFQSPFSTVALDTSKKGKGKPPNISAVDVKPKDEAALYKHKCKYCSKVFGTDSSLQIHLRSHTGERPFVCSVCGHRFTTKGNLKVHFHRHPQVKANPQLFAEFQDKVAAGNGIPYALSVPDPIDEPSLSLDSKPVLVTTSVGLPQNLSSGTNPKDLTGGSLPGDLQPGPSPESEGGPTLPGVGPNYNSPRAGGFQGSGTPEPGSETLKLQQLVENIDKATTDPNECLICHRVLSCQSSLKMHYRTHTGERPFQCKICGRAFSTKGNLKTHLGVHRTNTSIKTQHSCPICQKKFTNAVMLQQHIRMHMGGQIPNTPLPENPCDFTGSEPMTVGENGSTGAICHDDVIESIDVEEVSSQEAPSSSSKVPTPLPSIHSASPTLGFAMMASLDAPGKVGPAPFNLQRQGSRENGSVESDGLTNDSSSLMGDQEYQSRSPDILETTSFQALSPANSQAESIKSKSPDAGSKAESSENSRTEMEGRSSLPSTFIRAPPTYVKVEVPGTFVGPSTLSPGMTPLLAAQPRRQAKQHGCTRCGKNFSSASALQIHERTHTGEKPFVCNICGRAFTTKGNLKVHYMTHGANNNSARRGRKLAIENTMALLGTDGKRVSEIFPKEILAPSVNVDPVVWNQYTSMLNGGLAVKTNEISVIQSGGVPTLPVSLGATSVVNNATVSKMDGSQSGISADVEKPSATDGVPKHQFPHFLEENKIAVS

Series 1
Target: Histone acetyltransferase KAT6A, winged helix 2, GST fusion (KAT6A, Homo sapiens, UniProt Q92794, residues 85-181)
Technique: protein binding microarray
Form: double-stranded DNA, one strand shown
Sample: in vitro
Concentration: not given
Setting: 8-mer, flanks averaged, mean of 2 arrays, mostly near background
Reference: not given
Reading: higher = stronger binding
Residues (chain): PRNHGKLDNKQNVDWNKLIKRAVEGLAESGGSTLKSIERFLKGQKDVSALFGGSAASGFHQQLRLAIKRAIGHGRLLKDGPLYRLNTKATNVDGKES
Oligonucleotide	E-score
GGCTTTGA	0.0703
ATGTGAAG	-0.0111
CGGGACTA	0.0662

Mixed results
Molecule	target	test	system	setting	how to read	endpoint	result
GCCTAGCACTCACATGTGCTGTCTCAGACTGTGCTAGTCTTGATTCGCTTGACGCTGCTG	Interferon regulatory factor 7, full length, phosphomimetic (IRF7, Homo sapiens, UniProt Q92985, residues 1-503, S471D/S472D/S475D/S476D/S477D/S483D/S484D/S487D)	protein-binding microarray	double-stranded DNA, one strand shown, in vitro	2200 nM top, 60-bp whole probe, together with: salmon DNA 0.4 mg/ml	reference: random background probes, higher = stronger binding	fitted relative affinity	0.622 z-score
AGCGAGCT	Sal-like protein 4, full length isoform A (SALL4, Homo sapiens, UniProt Q9UJQ4, residues 1-1053)	universal PBM	double-stranded DNA, one strand shown, in vitro	600 nM, 8-mer, flanks averaged, mean of replicates	higher = stronger binding	E-score	-0.132
PhoQ, residues 284 288 289 292 302 303 SCKMEA	PhoP, residues 12 14 15 18 19 TTLRV (Escherichia coli, UniProt P23836)	Sort-seq, refers to: YFP reporter	E. coli	PhoQ-PhoP variant library, together with: 10 µM Mg2+	reference: high Mg2+ state, higher = stronger signaling	fold induction	3.63

Some of these lines once more (mixed results):
Molecule	target	test	system	setting	how to read	endpoint	result
AGCGAGCT	Sal-like protein 4, full length isoform A (SALL4, Homo sapiens, UniProt Q9UJQ4, residues 1-1053)	universal PBM	double-stranded DNA, one strand shown, in vitro	600 nM, 8-mer, flanks averaged, mean of replicates	higher = stronger binding	E-score	-0.132
